Measurements from different studies.
Protocols differ between the studies behind these lines. ± marks the error that the study gave.

O=c1c(-c2cnn(-c3ccc(Cl)cc3)c2)c(C(F)(F)F)oc2c(O)c(O)ccc12 — Cmax (mouse; intraperitoneal, 100 mg/kg, vehicle DMSO): ~35 µM
COc1ccc2ccc3c(c2c1)C=[N+]1C2CCCCC2[N+]2=Cc4cccc(OC)c4[O][Au-]21[O]3.F[P-](F)(F)(F)(F)F (stereo not drawn) — Cmax (ICP-MS, refers to: gold; mouse, serum; intraperitoneal, 5 mg/kg): 2320 ng/mL
COc1ccc(NC(=O)N2CCCCN3[C@H](CN(C)C)[C@H](c4ccc(C#Cc5ccccc5)cc4)[C@@H]3C2)cc1 — Cmax (CD-1 mouse, brain; oral, 10 mg/kg, single dose): 1790 ng/g
CCNC(=O)c1noc(-c2cc(C(C)C)c(O)cc2O)c1NC(=O)CCN1CCOCC1 — Cmax (CD1 nude mouse, A-431 xenograft, plasma; intraperitoneal, 80 mg/kg single): 2950 ng/mL
CN(CCCNC(=O)c1cccc(C(=O)O)c1)CCCNC(=O)c1cc(NC(=O)c2cc(NC(=O)c3cc(NC(=O)c4cc(NC(=O)[C@H](N)CCNC(=O)c5cc(NC(=O)c6cc(NC(=O)c7nc(NC(=O)c8nccn8C)cn7C)cn6C)cn5C)cn4C)cn3C)cn2C)cn1C — Cmax (C57BL/6 mouse, plasma; intraperitoneal, 120 nmol/animal): 14.8 µM
N#CC1(c2ccc3c(N)ncnn23)OC(COP(=O)(O)O)C(O)C1O (stereo not drawn) — Cmax (LC-MS/MS; CD-1 mouse, liver; oral, 100 mg/kg of remdesivir): 61600 nmol/kg
O=C(N[C@@H](Cc1coc2ccccc12)B(O)O)[C@@H]1C[C@H]2CC[C@@H]1O2 — Cmax (mouse, U266B1 xenograft, plasma; oral, 30 mg/kg, total, single dose): 11.7 µM
CCc1nc(N)nc(N)c1C#C[C@H](C)c1cc(-c2cc(C)nc(C)c2)ccc1Cl — Cmax (mouse, plasma; oral, 16 mg/kg): 400 ng/mL
CCCCCCCCCCCCCCCC(=O)NCCOCCOCCOCCOCCOCCOCCOCCOCCC(=O)NCCCC[C@H](NC(=O)CNC(=O)[C@@H]1CSSC[C@H](N)C(=O)N[C@@H](Cc2ccc(O)cc2)C(=O)N[C@@H]([C@@H](C)CC)C(=O)N[C@@H](CCC(N)=O)C(=O)N[C@@H](CC(N)=O)C(=O)N1)C(=O)NCC(N)=O — Cmax (male C57BL/6J mouse, plasma; subcutaneous, 1 mg/kg): 0.331 µM
C=CC(=O)Nc1cccc(-c2cnc3[nH]cc(C(=O)NC(C)(C)C)c3n2)c1 — Cmax (mouse NOD/SCID female, plasma; oral, 50 mg/kg): 1000 ng/mL
N=C(N)NCCC[C@@H]1NC(=O)[C@H](Cc2c[nH]c3ccccc23)NC(=O)[C@@H](CC2CCCCC2)NC(=O)[C@@H]2CCCN2C(=O)[C@@H](NC(=O)CCc2ccccc2)CCCNC1=O — Cmax (C57BL/6J mouse, plasma; intravenous, 1 mg/kg single dose): 34600 ng/mL
Clc1ccc(C(c2c[nH]c3ccccc23)c2c[nH]c3ccccc23)cc1 — Cmax (mouse C57BL/6 male, plasma; oral, 25 mg/kg): 1120 ± 405 ng/mL
Cc1ccc(CNC(=O)Cc2ccc(-c3ccc(OCCN4CCOCC4)cc3)cn2)cc1 — Cmax (ICR mouse; oral, 10 mg/kg): 1540 ± 330 ng/mL
CC1(C)CC[C@@]2(CO)C(=C3C=C[C@@H]4[C@@]5(C)CC[C@H](O)[C@@](C)(CO)[C@@H]5CC[C@@]4(C)[C@]3(C)C[C@@H]2O)C1 — Cmax (UHPLC-MS/MS; mouse, plasma; oral, 50 mg/kg of saikosaponin a): 66.3 ng/mL
COC(=O)C1=CNC=C(C(=O)OC)C1c1ccc(F)c(C(F)(F)F)c1 — Cmax (male mouse, brain; intraperitoneal, 25 mg/kg): 29 µM
NC(=O)c1ccc(C(=O)NOCc2ccc(Sc3cccc(Cl)c3)c(C(F)(F)F)c2)cc1 — Cmax (male ICR mouse, plasma; oral, 60 mg/kg): 11000 ng/mL
COc1ccc(NC(=O)N2CCCN3CCC(c4ccc(C#Cc5ccccc5)cc4)C3C2)cc1 (stereo not drawn) — Cmax (CD-1 mouse, plasma; oral, 10 mg/kg, single dose): 325 ng/mL
O=c1[nH]c2ccccc2n1CCCCCN1CCN(c2ccc(F)cc2)CC1 — Cmax (C57BL/6 mouse, plasma; subcutaneous, 5 mg/kg): 2900 ± 800 ng/mL
COc1cc(C(=O)OCCCN2CCCN(CCCOC(=O)c3cc(OC)c(OC)c(OCc4ccc([N+](=O)[O-])cc4)c3)CC2)cc(OC)c1OC — Cmax (male CD-1 mouse, plasma; subcutaneous, dose not given): 164 ng/mL
Cc1ccc(NC(=O)N2CCCN3CCC(c4ccc(C#CC5(O)CCCCC5)cc4)C3C2)cc1 (stereo not drawn) — Cmax (CD-1 mouse, brain; oral, 10 mg/kg, single dose): 87 ng/g
NS(=O)(=O)NCC(F)(F)c1ccccc1F — Cmax (mouse, brain; oral, 5 mg/kg): 7540 ng/g

Some of these lines once more:
O=c1c(-c2cnn(-c3ccc(Cl)cc3)c2)c(C(F)(F)F)oc2c(O)c(O)ccc12 — Cmax (mouse; intraperitoneal, 100 mg/kg, vehicle DMSO): ~35 µM
COc1ccc2ccc3c(c2c1)C=[N+]1C2CCCCC2[N+]2=Cc4cccc(OC)c4[O][Au-]21[O]3.F[P-](F)(F)(F)(F)F (stereo not drawn) — Cmax (ICP-MS, refers to: gold; mouse, serum; intraperitoneal, 5 mg/kg): 2320 ng/mL
